Results pooled from the literature.
Protocols differ between the studies behind these lines. Several values in a cell are separate wells, animals, samples, runs or records. Numbers after ± are the reported error.
RPA1 N-terminal domain: Replication protein A 70 kDa DNA-binding subunit, N-terminal domain (RPA1, Homo sapiens, UniProt P27694)
GRM4: Metabotropic glutamate receptor 4 (GRM4, Homo sapiens, UniProt Q14833)
E3 ubiquitin-protein ligase NEDD4: E3 ubiquitin-protein ligase NEDD4 (Homo sapiens, UniProt P46934)
WEE1/CRBN: WEE1/CRBN (Homo sapiens, UniProt P30291+Q96SW2)
Lysophospholipase-like protein 1: Lysophospholipase-like protein 1 (Mus musculus, UniProt Q3UFF7)

Protein sequences, listed by entry. Tags and fused reporters are not part of them. Lines headed by an entry give the natural chain unless they say otherwise; changes in a name come on top. Residues count along the entry.
UniProt Q14833, 33-912 limits assumed: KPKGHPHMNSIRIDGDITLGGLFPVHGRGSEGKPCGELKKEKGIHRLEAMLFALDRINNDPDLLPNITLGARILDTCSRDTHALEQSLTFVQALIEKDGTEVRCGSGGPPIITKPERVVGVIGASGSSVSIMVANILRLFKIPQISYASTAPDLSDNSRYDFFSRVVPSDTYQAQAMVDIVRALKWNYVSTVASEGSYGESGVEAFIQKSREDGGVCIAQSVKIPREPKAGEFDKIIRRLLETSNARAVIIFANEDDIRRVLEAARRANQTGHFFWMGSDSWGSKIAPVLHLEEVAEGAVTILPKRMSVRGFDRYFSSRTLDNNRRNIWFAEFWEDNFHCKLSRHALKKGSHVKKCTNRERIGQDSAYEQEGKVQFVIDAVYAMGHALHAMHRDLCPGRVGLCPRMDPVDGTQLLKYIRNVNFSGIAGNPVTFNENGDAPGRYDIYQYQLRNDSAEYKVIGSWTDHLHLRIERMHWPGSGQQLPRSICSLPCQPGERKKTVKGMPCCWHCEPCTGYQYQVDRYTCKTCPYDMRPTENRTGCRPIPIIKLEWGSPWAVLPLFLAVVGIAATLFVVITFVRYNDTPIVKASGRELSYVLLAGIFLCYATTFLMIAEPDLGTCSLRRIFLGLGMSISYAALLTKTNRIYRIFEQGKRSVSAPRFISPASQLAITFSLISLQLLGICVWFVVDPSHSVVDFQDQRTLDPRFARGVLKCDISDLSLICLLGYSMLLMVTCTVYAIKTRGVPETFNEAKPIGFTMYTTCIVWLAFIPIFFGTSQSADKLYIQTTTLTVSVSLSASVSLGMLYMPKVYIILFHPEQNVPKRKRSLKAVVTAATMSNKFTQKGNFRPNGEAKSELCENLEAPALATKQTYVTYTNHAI
UniProt P46934, whole entry, looked up: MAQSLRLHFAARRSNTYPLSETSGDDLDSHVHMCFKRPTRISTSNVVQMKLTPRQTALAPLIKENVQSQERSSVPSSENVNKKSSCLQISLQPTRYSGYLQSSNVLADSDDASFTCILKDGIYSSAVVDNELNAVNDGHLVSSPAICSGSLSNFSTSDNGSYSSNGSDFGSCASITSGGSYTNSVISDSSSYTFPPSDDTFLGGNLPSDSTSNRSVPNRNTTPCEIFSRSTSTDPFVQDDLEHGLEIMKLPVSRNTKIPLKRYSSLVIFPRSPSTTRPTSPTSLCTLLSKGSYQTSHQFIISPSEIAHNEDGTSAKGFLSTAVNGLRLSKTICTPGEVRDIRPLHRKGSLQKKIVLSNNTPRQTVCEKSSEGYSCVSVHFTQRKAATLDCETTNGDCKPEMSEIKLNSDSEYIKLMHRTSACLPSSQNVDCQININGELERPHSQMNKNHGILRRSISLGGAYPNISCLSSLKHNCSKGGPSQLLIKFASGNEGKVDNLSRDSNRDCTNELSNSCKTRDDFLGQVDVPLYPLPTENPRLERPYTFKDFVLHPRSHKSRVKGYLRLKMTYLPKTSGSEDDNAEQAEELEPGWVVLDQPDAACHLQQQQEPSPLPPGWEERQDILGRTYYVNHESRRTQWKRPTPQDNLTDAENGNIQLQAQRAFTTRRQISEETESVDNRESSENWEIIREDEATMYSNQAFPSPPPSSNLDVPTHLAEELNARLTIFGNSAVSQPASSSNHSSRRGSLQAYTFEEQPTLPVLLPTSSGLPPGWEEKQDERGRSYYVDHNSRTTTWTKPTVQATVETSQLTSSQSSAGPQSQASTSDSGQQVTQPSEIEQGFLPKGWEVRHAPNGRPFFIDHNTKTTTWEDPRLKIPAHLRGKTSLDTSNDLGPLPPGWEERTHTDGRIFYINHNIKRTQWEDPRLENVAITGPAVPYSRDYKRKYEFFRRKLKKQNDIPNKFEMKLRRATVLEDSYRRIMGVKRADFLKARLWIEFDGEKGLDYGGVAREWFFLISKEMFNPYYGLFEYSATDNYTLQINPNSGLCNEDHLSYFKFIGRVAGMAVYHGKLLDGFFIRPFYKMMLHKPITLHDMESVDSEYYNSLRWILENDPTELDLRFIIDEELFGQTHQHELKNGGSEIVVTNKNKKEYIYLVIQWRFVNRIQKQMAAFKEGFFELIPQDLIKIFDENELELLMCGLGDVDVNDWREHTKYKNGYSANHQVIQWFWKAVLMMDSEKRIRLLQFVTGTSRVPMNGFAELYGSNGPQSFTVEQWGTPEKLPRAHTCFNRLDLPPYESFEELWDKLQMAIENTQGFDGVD
UniProt B2RXH2, whole entry: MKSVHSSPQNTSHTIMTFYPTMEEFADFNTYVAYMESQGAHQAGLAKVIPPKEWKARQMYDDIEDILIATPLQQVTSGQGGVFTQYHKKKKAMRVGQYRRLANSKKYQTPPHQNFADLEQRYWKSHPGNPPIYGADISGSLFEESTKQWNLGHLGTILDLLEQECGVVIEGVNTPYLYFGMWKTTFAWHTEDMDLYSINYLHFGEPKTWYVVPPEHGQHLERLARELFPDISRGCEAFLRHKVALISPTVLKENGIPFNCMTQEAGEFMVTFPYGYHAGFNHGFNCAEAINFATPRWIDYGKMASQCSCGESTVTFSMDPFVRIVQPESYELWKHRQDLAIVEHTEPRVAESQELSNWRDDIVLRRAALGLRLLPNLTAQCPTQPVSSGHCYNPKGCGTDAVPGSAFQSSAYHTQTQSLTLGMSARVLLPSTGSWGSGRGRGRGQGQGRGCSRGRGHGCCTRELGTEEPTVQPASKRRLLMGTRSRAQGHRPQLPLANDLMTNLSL
UniProt Q9UDY8, whole entry: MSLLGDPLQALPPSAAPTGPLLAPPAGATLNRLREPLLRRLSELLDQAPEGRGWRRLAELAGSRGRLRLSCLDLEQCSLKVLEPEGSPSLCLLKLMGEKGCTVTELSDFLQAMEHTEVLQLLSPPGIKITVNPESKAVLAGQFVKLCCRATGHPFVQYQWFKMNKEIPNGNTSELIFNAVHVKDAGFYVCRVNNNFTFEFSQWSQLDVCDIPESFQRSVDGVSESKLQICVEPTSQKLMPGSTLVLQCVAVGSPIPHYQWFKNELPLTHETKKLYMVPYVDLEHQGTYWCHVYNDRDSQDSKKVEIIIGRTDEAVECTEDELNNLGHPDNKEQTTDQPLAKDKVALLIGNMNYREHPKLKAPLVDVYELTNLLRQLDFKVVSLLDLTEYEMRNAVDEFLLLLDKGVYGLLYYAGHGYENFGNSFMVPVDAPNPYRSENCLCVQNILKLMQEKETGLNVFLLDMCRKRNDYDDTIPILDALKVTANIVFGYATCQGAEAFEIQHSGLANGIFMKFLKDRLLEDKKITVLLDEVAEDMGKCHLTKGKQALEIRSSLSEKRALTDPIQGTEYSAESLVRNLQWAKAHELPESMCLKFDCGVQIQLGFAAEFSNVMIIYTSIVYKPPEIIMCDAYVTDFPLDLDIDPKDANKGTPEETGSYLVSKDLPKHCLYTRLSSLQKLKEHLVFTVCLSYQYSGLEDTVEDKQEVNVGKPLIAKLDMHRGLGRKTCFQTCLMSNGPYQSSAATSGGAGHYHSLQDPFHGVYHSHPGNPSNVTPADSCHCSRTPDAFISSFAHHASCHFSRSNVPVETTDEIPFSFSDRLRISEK
UniProt P10747, whole entry, looked up: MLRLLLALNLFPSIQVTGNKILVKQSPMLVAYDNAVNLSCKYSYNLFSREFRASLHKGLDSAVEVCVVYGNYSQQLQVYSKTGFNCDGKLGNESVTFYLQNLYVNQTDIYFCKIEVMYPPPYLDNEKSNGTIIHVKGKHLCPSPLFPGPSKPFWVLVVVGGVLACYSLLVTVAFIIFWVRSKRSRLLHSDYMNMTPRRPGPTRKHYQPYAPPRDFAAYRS
UniProt P05067, 672-713 limits assumed: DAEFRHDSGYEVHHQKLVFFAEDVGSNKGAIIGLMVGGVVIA
UniProt P31424, 21-1203 limits assumed: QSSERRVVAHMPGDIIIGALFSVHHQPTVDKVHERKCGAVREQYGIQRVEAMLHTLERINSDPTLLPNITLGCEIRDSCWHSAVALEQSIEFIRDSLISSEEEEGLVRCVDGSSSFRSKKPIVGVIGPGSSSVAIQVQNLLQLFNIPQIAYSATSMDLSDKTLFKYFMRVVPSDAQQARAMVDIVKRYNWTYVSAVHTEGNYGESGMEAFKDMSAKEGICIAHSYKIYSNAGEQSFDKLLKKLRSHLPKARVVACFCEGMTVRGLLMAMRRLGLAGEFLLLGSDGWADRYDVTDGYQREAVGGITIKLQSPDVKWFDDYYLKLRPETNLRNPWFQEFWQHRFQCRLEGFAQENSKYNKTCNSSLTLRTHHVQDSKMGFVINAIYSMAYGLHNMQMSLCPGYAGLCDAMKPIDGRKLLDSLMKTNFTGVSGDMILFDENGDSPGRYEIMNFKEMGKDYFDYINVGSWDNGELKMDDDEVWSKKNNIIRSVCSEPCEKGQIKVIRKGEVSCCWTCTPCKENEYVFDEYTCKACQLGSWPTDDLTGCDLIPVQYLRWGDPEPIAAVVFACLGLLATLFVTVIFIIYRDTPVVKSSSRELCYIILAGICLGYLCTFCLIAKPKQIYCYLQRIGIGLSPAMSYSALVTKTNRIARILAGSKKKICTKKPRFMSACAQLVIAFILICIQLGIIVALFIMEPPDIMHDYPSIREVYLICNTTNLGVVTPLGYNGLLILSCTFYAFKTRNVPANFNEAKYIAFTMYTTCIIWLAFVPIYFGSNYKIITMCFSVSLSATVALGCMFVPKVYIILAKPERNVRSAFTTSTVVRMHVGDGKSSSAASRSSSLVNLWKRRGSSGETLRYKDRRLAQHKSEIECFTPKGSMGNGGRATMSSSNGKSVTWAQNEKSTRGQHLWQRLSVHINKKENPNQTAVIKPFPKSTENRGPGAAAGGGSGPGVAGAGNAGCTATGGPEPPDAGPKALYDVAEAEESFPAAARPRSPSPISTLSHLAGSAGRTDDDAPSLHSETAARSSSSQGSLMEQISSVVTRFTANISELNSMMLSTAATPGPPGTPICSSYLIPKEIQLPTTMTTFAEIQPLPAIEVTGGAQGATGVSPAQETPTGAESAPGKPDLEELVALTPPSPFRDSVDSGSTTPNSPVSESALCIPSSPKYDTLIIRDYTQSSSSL
UniProt O00519, whole entry: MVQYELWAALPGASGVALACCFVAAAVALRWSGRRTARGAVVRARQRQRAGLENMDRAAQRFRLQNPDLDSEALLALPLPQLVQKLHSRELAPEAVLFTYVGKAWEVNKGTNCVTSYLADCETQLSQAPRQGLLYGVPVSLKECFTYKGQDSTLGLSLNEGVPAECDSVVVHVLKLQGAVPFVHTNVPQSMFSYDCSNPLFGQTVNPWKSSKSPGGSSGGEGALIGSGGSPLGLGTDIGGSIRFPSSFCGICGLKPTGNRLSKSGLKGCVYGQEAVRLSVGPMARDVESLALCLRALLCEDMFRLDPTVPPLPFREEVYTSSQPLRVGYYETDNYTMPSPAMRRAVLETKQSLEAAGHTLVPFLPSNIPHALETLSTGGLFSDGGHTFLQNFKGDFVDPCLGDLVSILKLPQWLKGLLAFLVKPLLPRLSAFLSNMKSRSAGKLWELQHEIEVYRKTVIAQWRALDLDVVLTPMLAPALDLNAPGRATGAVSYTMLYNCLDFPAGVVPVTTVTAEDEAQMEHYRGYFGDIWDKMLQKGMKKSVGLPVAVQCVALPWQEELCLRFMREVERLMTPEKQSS
UniProt P11473, whole entry: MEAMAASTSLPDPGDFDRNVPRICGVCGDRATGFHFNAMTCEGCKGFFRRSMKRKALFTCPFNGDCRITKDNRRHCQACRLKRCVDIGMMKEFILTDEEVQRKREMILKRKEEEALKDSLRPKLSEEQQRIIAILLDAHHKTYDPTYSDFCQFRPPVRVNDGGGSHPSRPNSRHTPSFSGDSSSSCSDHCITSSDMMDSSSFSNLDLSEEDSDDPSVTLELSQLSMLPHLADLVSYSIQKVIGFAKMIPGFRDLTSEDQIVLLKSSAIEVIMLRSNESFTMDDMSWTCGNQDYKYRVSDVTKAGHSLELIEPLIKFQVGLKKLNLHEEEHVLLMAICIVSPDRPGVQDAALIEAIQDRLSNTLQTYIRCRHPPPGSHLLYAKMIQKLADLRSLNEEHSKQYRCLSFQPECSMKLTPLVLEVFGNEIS
UniProt P11229, whole entry: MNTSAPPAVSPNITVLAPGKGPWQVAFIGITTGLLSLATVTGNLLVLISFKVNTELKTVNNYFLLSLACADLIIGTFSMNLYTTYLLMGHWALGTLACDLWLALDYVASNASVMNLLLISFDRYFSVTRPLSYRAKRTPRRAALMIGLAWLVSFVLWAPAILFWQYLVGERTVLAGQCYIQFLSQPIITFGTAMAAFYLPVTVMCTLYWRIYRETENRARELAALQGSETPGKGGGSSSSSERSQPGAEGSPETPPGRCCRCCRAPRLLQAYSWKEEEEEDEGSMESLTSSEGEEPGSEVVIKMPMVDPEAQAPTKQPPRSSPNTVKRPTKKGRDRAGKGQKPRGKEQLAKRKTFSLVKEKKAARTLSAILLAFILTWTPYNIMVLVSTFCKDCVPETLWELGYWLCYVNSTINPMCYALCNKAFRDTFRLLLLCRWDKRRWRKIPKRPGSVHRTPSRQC

For `Cc1ccc(C(=O)Nc2ccc(C(C)C)cc2C(=O)O)cc1S(=O)(=O)Nc1ccc(Br)cc1`, the ligand efficiency was 0.21 (RPA1 N-terminal domain; binding, fluorescence polarisation competition; added: FITC-ATRIP probe).
With `O=C(O)c1ccnc(C(=O)O)c1Nc1ccccc1[N+](=O)[O-]` the remaining activity was 6% (KDM4E (Homo sapiens, UniProt B2RXH2); inhibitor, FDH-coupled spectrophotometry, item: formaldehyde; 200 µM).
`COc1ccc(C(NS(=O)(=O)c2cccs2)C(=O)Nc2ccc(Cl)cc2)cc1` (stereo not drawn) gave an Emax of 109 ± 4.65% (Uracil nucleotide/cysteinyl leukotriene receptor, long isoform (GPR17, Homo sapiens, UniProt Q13304); calcium mobilization, antagonist; 1321N1 stably expressing GPR17; fitted at highest concentration; higher = stronger inhibition).
The kcat/Km of `CC(=O)N[C@@H](CC(C)C)C(=O)N[C@H](C(=O)N[C@@H](CO)C(=O)N[C@@H](CCCNC(=N)N)C(=O)Nc1ccc2c(CC(N)=O)cc(=O)oc2c1)C(C)C` is reported as 4600 M⁻¹ s⁻¹ (MALT1 (Homo sapiens, UniProt Q9UDY8); substrate, fluorogenic peptide hydrolysis; pH 7.5, enzyme 399 nM, citrate 0.9 M).
`COc1ccc(NC(=O)CN2CCCN(S(=O)(=O)c3ccc(C)cc3)CC2)c(OC)c1` gave a maximal response of 48.7% (GRM4; calcium mobilization, positive allosteric modulator; CHO cells with Gqi5; added: glutamate; reference: PHCCC maximal response).
The ligand efficiency of `CC(=O)N[C@H]1[C@H]2OC[C@](CO)(O2)[C@H](O)[C@@H]1O` is reported as 0.45 (Asialoglycoprotein receptor 1 (Homo sapiens, UniProt P07306); binding, surface plasmon resonance).
`CCOC(=O)/C=C/CNCCCN1c2ccccc2CCc2ccccc21`: “ubiquitination TR-FRET signal AUC” 130000 a.u. and 128000 a.u. (E3 ubiquitin-protein ligase NEDD4; inhibitor, Ub-TR-FRET; 0.005081 µM, 1 h preincubation, HECT domain, added: ATP 2 mM; higher = more ubiquitination).
`CC(C)C[C@H](NC(=O)[C@@H]1CCCN1C(=O)[C@H](CCC(N)=O)NC(=O)CNC(=O)[C@H](CO)NC(=O)[C@H](CCCNC(=N)N)NC(=O)[C@H](Cc1ccccc1)NC(=O)[C@H](CC(N)=O)NC(=O)[C@H](CCCNC(=N)N)NC(=O)[C@@H](NC(=O)c1ccccc1N)C(C)C)C(=O)N[C@@H](CCC(N)=O)C(=O)N[C@@H](CC(N)=O)C(=O)N[C@@H](CCCCN)C(=O)N[C@H](C(=O)N[C@@H](CCC(N)=O)C(=O)NCCNc1ccc([N+](=O)[O-])cc1[N+](=O)[O-])C(C)C` has a kcat/Km of 124000 M⁻¹ s⁻¹ (Mitochondrial intermediate peptidase (MIPEP, Homo sapiens, UniProt Q99797); substrate, FRET peptide hydrolysis).
`CCOc1ccccc1Nc1nnc(SCC(=O)Nc2cc(F)ccc2F)s1` — result for “onset of luminescence reduction”: 30 min (CD28, with CD86 (Homo sapiens, UniProt P10747); NanoBiT complementation; CHO-K1; 100 µM).
`CC(C)(C)Nc1c(-c2ccc3c(c2)C(=O)N(C2CCC(=O)NC2=O)C3=O)nc2ccccn12` (stereo not drawn) gave a Dmax of over 98% (WEE1/CRBN; degrader, HiBiT; Jurkat; 5 h).
`CCCCCN(C)C(=O)Oc1ccccc1C=C1Cc2cc(OC)c(OC)cc2C1=O` gave a KI of 7.05 nM (Cocaine esterase (CES2, Homo sapiens, UniProt O00748); inactivator).
The activation of `Nc1nc(SCc2ccc(Cl)cc2)nn1S(=O)(=O)c1ccoc1` is reported as 49% (Lysophospholipase-like protein 1; activator, gel-based ABPP, FP-rhodamine; HEK293 overexpressing Lysophospholipase-like protein 1; 10 µM).
`CCOC(=O)C(C(=O)/C=C/c1ccc(O)c(OC(F)(F)F)c1)C(=O)/C=C/c1ccc(O)c(OC(F)(F)F)c1`: “Aβ band density” 1580 ± 178% (APP (Homo sapiens, UniProt P05067); SDS-PAGE western blot, item: Aβ1-42 species 75-200 kDa; 30 µM, 24 h, 37 °C, added: Aβ 10 µM; reference: DMSO control).
The response of `O=C(Nc1ccc(F)c(F)c1)C12CC1/C(=N\O)c1ccccc1O2` (stereo not drawn) is reported as 48.6 ± 12% (GRM4; positive allosteric modulator, calcium mobilization; CHO expressing Gqi5; concentration not given, added: glutamate EC20; reference: (±)-PHCCC).
`N#Cc1cnc(Nc2nc3ccccc3o2)nc1-c1cccc2ccccc12` has a maximal response of 40 ± 12% (Grm5 (Rattus norvegicus, UniProt P31424); calcium mobilization, negative allosteric modulator; added: glutamate EC80; reference: glutamate maximum).
`NCC(c1ccccc1)c1cccc(Oc2ccccc2)c1` (stereo not drawn) gave an efficacy decrease of 44 to 85% (Trace amine-associated receptor 1 (Rattus norvegicus, UniProt Q923Y9, M268T/N287Y); cAMP production, agonist; double mutant; reference: wild type).
`COc1ccc2[nH]cc(/C=C/c3ccncc3)c2c1` has an inhibition of 61% (Amyloid-beta precursor protein, Aβ1-40 (APP, Homo sapiens, UniProt P05067); Aβ40 aggregation, thioflavin T fluorescence; 25 µM).
The kon of `Cc1cc(NC(=O)c2cccc(NC(=O)C3=CC(C)(C)CC3=O)c2)ccc1Nc1nccc(-c2cccnc2)n1` is reported as 130000 M⁻¹ s⁻¹ (MAPK8 (Homo sapiens, UniProt P45983, C116S); surface plasmon resonance; 100, 300, 1000 nM, 1:1 binding model).
`CC(=O)N1CCC[C@H]1C(=O)N[C@@H](CCC(N)=O)C(=O)N[C@@H](CC(C)C)C(=O)N1CCC[C@H]1C(=O)N[C@@H](Cc1ccccc1)C(N)=O` gave an apparent Ka of about 1 mM (TGM2 (Homo sapiens, UniProt P21980); enzyme activity, activator, GLDH-coupled deamidation; competitive model, added: Ca2+).
`COc1ccc(NC(=O)CN2CCCN(S(=O)(=O)c3cc(C)ccc3C)CC2)c(OC)c1` gave a maximal response of 32.5% (GRM4; calcium mobilization, positive allosteric modulator; CHO cells with Gqi5; added: glutamate; reference: PHCCC maximal response).
`Cc1cc(NC(=O)c2cccc(NC(=O)C3=CC(C)(C)CCC3=O)c2)ccc1Nc1nccc(-c2cccnc2)n1` gave a remaining activity of 0.413 (MAPK8 (Homo sapiens, UniProt P45983); kinase activity, inhibitor; 1.646 µM, unit not given, added: 10 mM GSH; reference: DMSO).
For `Nc1nc(NCc2ccc(Cl)cc2)nn1S(=O)(=O)c1cccc2ccccc12`, the probe labelling was 1.2 fold (Lysophospholipase-like protein 1; activator, gel-based ABPP FP-rhodamine; reference: DMSO).
Under activity, `O=C(OC(C(F)(F)F)C(F)(F)F)N1Cc2cccc(Br)c2C1` is recorded as “inactive” (FAAH (Homo sapiens, UniProt O00519); enzyme activity, inhibitor, fluorescence AAMCA substrate; 1 µM).
`CCOC(=O)/C=C/CNCCCCCN1c2ccccc2CCc2ccc(Cl)cc21`: “ubiquitination TR-FRET signal AUC” 70000 a.u. and 68200 a.u. and 71300 a.u. and 93300 a.u. and 94900 a.u. and 97500 a.u. (E3 ubiquitin-protein ligase NEDD4; inhibitor, Ub-TR-FRET; 0.1372 µM, 1 h preincubation, HECT domain, added: ATP 2 mM; higher = more ubiquitination).
`Cc1cc(SCc2sc(-c3cccc4[nH]ccc34)nc2C)ccc1OCC(=O)O`: IC50 “inactive” (Vitamin D3 receptor (VDR, Homo sapiens, UniProt P11473); reporter gene, antagonist; HEK-293T; up to 100 µM, CYP24A1 promoter luciferase, added: 1,25(OH)2D3 10 nM).
With `O=C(CCCCCCN(Cc1ccc2ccccc2c1)Cc1ccc2ccccc2c1)NO` the selectivity ratio was 3.8 (HDAC2 (Homo sapiens, UniProt Q92769); reference: IC50 HDAC2 over HDAC1).
With `CC(=O)Nc1ncc(CN2CC[C@H](Oc3cccc(F)n3)C[C@@H]2C)s1` [isotope labelled] the Bmax was 6.6 ± 0.6 nM (Protein O-GlcNAcase (Rattus norvegicus, UniProt Q8VIJ5); saturation binding; rat cerebellum homogenate; radiolabelled compound).
With `Cc1cc(NS(=O)(=O)c2cc(C(=O)Nc3ccccc3C(=O)O)ccc2C)ccc1Cl` the ligand efficiency was 0.18 (RPA1 N-terminal domain; binding, fluorescence polarisation competition; added: FITC-ATRIP probe).
For `CC(C)(Cn1cc(CNC(=O)Cc2ccccc2)nn1)c1c[nH]c2ccccc12`, the Emax was 98 ± 2% (GLP1R (Homo sapiens, UniProt P43220); cAMP accumulation, positive allosteric modulator, HTRF; 0.6 µM, purified compound, added: GLP-1(9-36) at EC20; reference: BETP).
`CCOC(=O)/C=C/CNCCCCN1c2ccccc2CCc2ccc(Cl)cc21` — result for “ubiquitination TR-FRET signal AUC”: 59400 a.u. and 61700 a.u. and 58600 a.u. and 61800 a.u. and 62800 a.u. and 59700 a.u. (E3 ubiquitin-protein ligase NEDD4; inhibitor, Ub-TR-FRET; 0.4115 µM, 1 h preincubation, HECT domain, added: ATP 2 mM; higher = more ubiquitination).
With `O=C(N[C@H]1CCCC[C@@H]1O)[C@@H]1CN(Cc2ccc(-n3cccn3)cc2)c2ccccc2O1` the efficacy was 89 ± 2% (CHRM1 (Homo sapiens, UniProt P11229); calcium mobilization, positive allosteric modulator; high-expression cell line; added: acetylcholine EC20; reference: acetylcholine max).
For `Nc1ncnc2c1c(-c1ccc(C(=O)Nc3cc(OC(F)(F)F)ccn3)cc1)nn2[C@@H]1CCCN(C(=O)C2CC2)C1`, the koff was 0.000426 ± 4.3e-05 s⁻¹ (Tyrosine-protein kinase BTK, non-phosphorylated (BTK, Homo sapiens, UniProt Q06187); TR-FRET binding kinetics; 37 °C, unphosphorylated protein).
`O=C(O)c1cc(C(=O)N[C@@H](Cc2ccc(O)cc2)C(=O)O)cc([C@H]2CCN[C@@H]2C(=O)O)c1` gave a specific binding of 62 ± 1% (Glutamate receptor ionotropic, kainate 1 (Rattus norvegicus, UniProt P22756); radioligand binding; Sf9 membranes; 10 µM, homomeric receptor, added: [3H]SYM2081).
Under “ubiquitination TR-FRET signal AUC”, `CCOC(=O)/C=C/CNCCN1c2ccccc2CCc2ccc(Cl)cc21` is recorded as 161000 a.u. and 164000 a.u. and 158000 a.u. (E3 ubiquitin-protein ligase NEDD4; inhibitor, Ub-TR-FRET; 33.33 µM, 1 h preincubation, HECT domain, added: ATP 2 mM; higher = more ubiquitination).
The binding stoichiometry of `C/C=C/Cn1c(Cc2cc(OC)c(OC)c(OC)c2)nc2c(N)ncnc21` is reported as 1.03 ± 0.18 (Heat shock protein HSP 90-alpha, N-terminal domain (HSP90AA1, Homo sapiens, UniProt P07900); isothermal titration calorimetry, one-site model; concentration not given, 298 K, N-terminal domain).
`O=C1CCC(N2Cc3cc(-c4nc5ccccn5c4Nc4ccc5c(c4)OCCO5)ccc3C2=O)C(=O)N1` (stereo not drawn): “ternary complex formation” about 2 fold (WEE1/CRBN; TR-FRET; reference: background).

Some of these lines once more:
`COc1ccc(C(NS(=O)(=O)c2cccs2)C(=O)Nc2ccc(Cl)cc2)cc1` (stereo not drawn) gave an Emax of 109 ± 4.65% (Uracil nucleotide/cysteinyl leukotriene receptor, long isoform (GPR17, Homo sapiens, UniProt Q13304); calcium mobilization, antagonist; 1321N1 stably expressing GPR17; fitted at highest concentration; higher = stronger inhibition).
The kon of `Cc1cc(NC(=O)c2cccc(NC(=O)C3=CC(C)(C)CC3=O)c2)ccc1Nc1nccc(-c2cccnc2)n1` is reported as 130000 M⁻¹ s⁻¹ (MAPK8 (Homo sapiens, UniProt P45983, C116S); surface plasmon resonance; 100, 300, 1000 nM, 1:1 binding model).
With `CC(=O)Nc1ncc(CN2CC[C@H](Oc3cccc(F)n3)C[C@@H]2C)s1` [isotope labelled] the Bmax was 6.6 ± 0.6 nM (Protein O-GlcNAcase (Rattus norvegicus, UniProt Q8VIJ5); saturation binding; rat cerebellum homogenate; radiolabelled compound).
With `Cc1cc(NS(=O)(=O)c2cc(C(=O)Nc3ccccc3C(=O)O)ccc2C)ccc1Cl` the ligand efficiency was 0.18 (RPA1 N-terminal domain; binding, fluorescence polarisation competition; added: FITC-ATRIP probe).
